# Assay results collected from several papers.
# Each numbered part is a random draw from the data of one study; scales do not carry over between parts. Changes are numbered by the printed parent chain.

# Series 1
# Target: Prothrombin, mature alpha-thrombin (F2, Homo sapiens, UniProt P00734)
# Method: aptamer microarray, sandwich
# Form: DNA with 2'F-ANA
# Sample: in vitro
# Concentration: 200 nM
# Setting: whole 15-mer aptamer, many near background
# Added: Cy3 exosite-II aptamer, 400 nM
# Reading: higher = stronger binding
# Sequence: GGTTGGTGTGGTTGG
Modification,mean fluorescence intensity [a.u.]
2'F-ANA at 5 7 9 10,47.9
2'F-ANA at 1 2 4 5 7 9 12 13 15,67.8
2'F-ANA at 1 2 4 5 6 7 8 10 11 12 14,66.3
2'F-ANA at 2 3 5 7 8 9 12,259
2'F-ANA at 2 3 5 9 11 12 13 14,73.4
2'F-ANA at 1 4 5 7 10 11 15,48.1
2'F-ANA at 2 4 6 8 11 13 14 15,71.1
2'F-ANA at 1 6 8 9 11 12 14,192

# Series 2
# Target: CEP164, C-terminal peptide (human)
# Method: DHFR complementation, deep sequencing
# Sample: yeast
# Setting: single substitutions, model-inferred values
# Relative to: wild type
# Reading: higher = weaker binding
# Parent: PDZK1, PDZ domain 2 (human); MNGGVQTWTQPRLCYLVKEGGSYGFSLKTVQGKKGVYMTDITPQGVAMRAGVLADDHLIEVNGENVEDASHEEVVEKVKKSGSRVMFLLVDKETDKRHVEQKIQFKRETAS; partner HNRVKVYRF
Change,binding free energy change [kcal/mol]
F87A,1.41
K77G,0.598
K80V,0.408
V66Q,0.343
V99S,-0.133
V99G,-0.14
G3Q,-0.109
L88P,0.433

# Series 3
# Target: Hepatocyte nuclear factor 3-alpha (Foxa1, Mus musculus, UniProt P35582, residues 1-468, full length assumed)
# Method: EMSA with sequencing
# Form: double-stranded DNA, one strand shown
# Sample: in vitro
# Concentration: 10 and 20 nM
# Setting: whole designed probe, mean of two concentrations, ends assumed
# Relative to: negative control set to 0
# Reading: higher = stronger binding
# All sequences stand within: GTGAGCGGTGCCCATTGATGGGGAAC … TTTCACTGGGATCGTGGGGAC
# Target sequence (chain): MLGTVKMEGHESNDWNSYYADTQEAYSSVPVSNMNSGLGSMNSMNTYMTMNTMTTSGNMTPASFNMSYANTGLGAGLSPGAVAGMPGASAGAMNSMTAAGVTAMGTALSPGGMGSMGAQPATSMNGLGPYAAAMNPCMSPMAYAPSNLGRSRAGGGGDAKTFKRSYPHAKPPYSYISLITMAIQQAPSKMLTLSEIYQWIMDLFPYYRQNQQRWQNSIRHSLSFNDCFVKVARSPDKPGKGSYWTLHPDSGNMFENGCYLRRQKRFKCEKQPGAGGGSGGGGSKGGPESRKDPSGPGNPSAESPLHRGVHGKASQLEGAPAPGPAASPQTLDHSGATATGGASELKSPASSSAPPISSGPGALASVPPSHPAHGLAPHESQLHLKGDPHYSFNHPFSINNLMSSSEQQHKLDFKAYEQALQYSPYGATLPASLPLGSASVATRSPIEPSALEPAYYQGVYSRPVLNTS
Sequence,normalised bound fraction
ATCTTCCCCCTCTTCCTTGCCCCACCAGCTCACCTTCCCGGGTTATTTGCAGATAGGAAATTAATATAAGCCGGCATTCGTTAACCCTCTTCTGGCGCAAACTGCACATTGGTCTGGATGAATCATGGTCCTTTGGCGACGCCAGGCTCCGGGAGAGCAAAGCACCGTGTCAGGGCCATGATCCGGGGTGGCC,0.0728 ratio
ATCTTCCCCCTCTTCCTTGCCCCACCAGCTCACCTACGGGGGTTATTTGCACAAAGGAAAATAAATAAAGCCGGCATTCGTTAACGCAGTTCTGGCGCAAACTGCTGTTTGCTCTGCATCTAACATGGTCCTTACGCGACGCCAGGCTCCGGGAGAGCAAAGCACCGTGTCAGGCGCATGATCCGGGCTCGCC,0.394 ratio
TTATGATCTGAGTATATATAGTAAGTACCTCCCCTTTCAGGGTAAGGCAGTAGGTAATGGTGAAAAGGTGACTCACAGGGAAGCAAGGTTGAGTAAACAACACCAAGCATATCTGACTCAAGGAATGCTTCAGAGGCCAGGGGTGCATGCCTGTAATCCCAGCACCTTGGAAGGCTGACACAGGAGGATCACT,0.353 ratio
CCATCTCAGCTGAGGGTACTATCATCCACCCTGTGGCCACATCCAGGAATGTGTGTATCACCTGGGCTCTGAGGAAGTCAACTGCTCTTCTAAGTCAACAGAATGTCGGGTCTGTTCTAAAAGTCTCATCTGACAAGGAGATCTTTAAGGCTTTACTCCCTTAAAGGCTTTACTCCCATCATGATGGGATAAC,0.176 ratio
AATCCAGCTACCTATCTTCAGTTCCTTGGCCTTCAGCTGGCAGTGAAACAGACACATCAGCTTTAAGACTGGCAGCCAAATAGTTAACGATCTGTAAACATACAAATACGCATGTAGAGAGTTCCTGTTCAAACAGACTGGATGAAAGCCCTTCCATAAAGAACCCTTTAGGTGATGATGCTAAAATTATTTT,0.24 ratio
AGCAAGGCTTTAAAAGTGAGGTCTTTCAGTTTAGATGCAAAAAGGGTGGTTCTGTTGAGTCAACCCAGCTAGTTTCGTAATTTTCACTACATAGTAAACACCTAGAATGAGGTAGCTGGAGTGCAAATCTAAATGGCTTGTGACAGTTAAGGAAGTACATAGGCAACAGTTACTGGTTTTCTTGATGCAGCTG,-0.00798 ratio
AAAGATGGCATGTTGTGATTATAAACCACAGAAGAAATCTCTAATTAGTCATCCTTCTCTGAAAAATTCATTAATACTGATTAAGCCTGCAGAGTCATCTGTGGAATTCTAGTCAAGCAGAACATTTATGGAGTGGCTTTGAAGGAGCTATGAATCGATTGTTCCCAGAAGAGCAGGTCTACCCTCCCAAGAA,-0.0671 ratio
GAATAATCCCATTGTAAGTCACTCGCCTTCTGGTGGATTTCGGTCAGGGTCAAAGAGCAAACGGGCAGGAACTGGGCTGTTTGAATGAGCTTTGTAATCTAGGTCGTCATCAAGCCATGACTCAATACACAGTGAATTATCTGAAGCCTTTTAGAATTAGCAACTAACCTCCAGGAAACTGGTGCATGTTGCA,-0.0541 ratio

# Series 4
# Target: CCNE2, cyclin fold, Cln2 fusion (human)
# Method: yeast growth competition, sequencing
# Sample: yeast
# Setting: strong parent motif
# Relative to: not given
# Reading: higher = stronger binding
# Parent: viral docking peptide; YKVKRRLVFGADD; partner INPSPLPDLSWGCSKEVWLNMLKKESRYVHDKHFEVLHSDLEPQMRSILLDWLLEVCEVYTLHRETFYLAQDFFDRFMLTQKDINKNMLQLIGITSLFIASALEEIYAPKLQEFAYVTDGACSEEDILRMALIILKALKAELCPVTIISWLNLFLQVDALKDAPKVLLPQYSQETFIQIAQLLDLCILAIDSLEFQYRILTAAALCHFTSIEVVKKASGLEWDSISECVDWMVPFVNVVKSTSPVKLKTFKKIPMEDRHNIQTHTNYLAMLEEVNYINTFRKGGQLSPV
Change,normalised enrichment score
L7F,0.365
L7Q,-0.00529
K2V,4.39
V3L,0.865
K2I,4.23
R5E,0.341
R6W,1.51
F9P,0.47
R5Q,0.581
K2Q,5.71
F9S,0.747
D12V,5.48
D12L,4.7
V8N,5.52
D12P,5.61
V3T,3.01
F9V,0.784
L7T,0.405
L7W,0.616
F9Q,0.771
V3A,4.8
R6E,0.895
K2Y,4.82
R5F,0.142
K2E,5

# Series 5
# Target: Interferon regulatory factor 7, full length, phosphomimetic (IRF7, Homo sapiens, UniProt Q92985, residues 1-503, S471D/S472D/S475D/S476D/S477D/S483D/S484D/S487D)
# Sequence of UniProt Q92985 (whole entry, unmodified, looked up): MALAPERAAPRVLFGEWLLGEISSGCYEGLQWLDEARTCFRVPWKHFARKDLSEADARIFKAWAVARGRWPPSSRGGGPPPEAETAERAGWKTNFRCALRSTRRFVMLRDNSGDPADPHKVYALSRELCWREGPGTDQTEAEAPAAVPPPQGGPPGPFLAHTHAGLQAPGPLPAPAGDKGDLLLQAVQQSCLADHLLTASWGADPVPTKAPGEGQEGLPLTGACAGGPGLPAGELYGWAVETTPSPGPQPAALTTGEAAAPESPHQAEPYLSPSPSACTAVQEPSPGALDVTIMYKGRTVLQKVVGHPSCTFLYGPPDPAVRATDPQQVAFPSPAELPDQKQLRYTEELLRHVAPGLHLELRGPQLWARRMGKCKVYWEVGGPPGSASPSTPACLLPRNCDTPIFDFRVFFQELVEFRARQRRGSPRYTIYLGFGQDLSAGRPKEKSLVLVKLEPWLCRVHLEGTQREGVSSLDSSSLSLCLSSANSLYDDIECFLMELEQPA
# Method: protein-binding microarray
# Form: double-stranded DNA, one strand shown
# Sample: in vitro
# Concentration: 2200 nM top
# Setting: 60-bp whole probe
# Added: salmon DNA 0.4 mg/ml
# Relative to: random background probes
# Reading: higher = stronger binding
# All sequences stand within: GCCTAGCAC … GTCTTGATTCGCTTGACGCTGCTG
Sequence,fitted relative affinity [z-score]
GACGGTATCTACTATCGGGACGTGCTA,0.228
GGCGGTCTCGGTTTCGGGACGTGCTAG,3.26
TTAGATTTCGGGAGTGGATTAGTGCTA,0.401
ATAGGTATCGACACTGGGTTAGTGCTA,0.1
TTAGATTTCAGTCTCGATTAGTGCTAG,0.819
AAGCTCCTATCTTATGATATAGTGCTA,0.227
GACGGACTGGTTCTCGGGACGTGCTAG,-0.585
TCAGACTTGATTTTGGTACTGTGCTAG,0.29

# Some of these lines once more (series 2):
Change,binding free energy change [kcal/mol]
G3Q,-0.109
K77G,0.598
K80V,0.408
V99G,-0.14
L88P,0.433
V99S,-0.133
F87A,1.41
